Experimental data of several laboratories.
Numbered parts are unrelated; each lists some results of a single study.
Sequence of UniProt Q13237 (whole entry, looked up): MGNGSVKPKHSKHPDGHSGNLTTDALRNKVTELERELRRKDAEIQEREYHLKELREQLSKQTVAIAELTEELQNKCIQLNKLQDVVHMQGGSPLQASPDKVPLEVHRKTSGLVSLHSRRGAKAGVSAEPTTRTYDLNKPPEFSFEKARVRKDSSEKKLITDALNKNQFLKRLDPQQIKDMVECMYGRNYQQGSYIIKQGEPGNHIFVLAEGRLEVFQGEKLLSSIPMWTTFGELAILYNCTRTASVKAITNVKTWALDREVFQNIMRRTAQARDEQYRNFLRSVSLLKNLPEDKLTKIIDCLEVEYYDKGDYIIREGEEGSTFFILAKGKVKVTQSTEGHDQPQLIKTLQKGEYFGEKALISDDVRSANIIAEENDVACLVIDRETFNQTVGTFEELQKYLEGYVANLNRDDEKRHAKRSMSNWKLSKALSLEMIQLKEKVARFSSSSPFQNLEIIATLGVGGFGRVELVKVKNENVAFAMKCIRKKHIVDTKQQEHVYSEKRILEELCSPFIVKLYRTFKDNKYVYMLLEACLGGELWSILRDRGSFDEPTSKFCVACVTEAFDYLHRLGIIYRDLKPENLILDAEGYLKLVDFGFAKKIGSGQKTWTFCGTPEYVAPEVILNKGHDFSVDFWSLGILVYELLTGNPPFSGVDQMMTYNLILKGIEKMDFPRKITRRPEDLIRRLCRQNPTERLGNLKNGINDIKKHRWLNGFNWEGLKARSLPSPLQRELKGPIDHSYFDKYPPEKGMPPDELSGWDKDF
Sequence of UniProt P0C264 (whole entry, looked up): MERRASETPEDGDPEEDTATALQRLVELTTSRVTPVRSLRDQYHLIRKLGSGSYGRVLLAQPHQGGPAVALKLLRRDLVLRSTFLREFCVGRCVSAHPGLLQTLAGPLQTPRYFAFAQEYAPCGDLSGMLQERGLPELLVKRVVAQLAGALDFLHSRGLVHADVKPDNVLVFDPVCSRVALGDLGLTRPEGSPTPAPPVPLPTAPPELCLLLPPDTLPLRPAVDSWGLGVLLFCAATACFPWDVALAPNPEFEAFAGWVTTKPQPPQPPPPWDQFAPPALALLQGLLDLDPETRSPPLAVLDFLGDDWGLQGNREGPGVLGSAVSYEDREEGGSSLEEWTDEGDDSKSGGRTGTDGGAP
Sequence of UniProt P42681 (whole entry, looked up): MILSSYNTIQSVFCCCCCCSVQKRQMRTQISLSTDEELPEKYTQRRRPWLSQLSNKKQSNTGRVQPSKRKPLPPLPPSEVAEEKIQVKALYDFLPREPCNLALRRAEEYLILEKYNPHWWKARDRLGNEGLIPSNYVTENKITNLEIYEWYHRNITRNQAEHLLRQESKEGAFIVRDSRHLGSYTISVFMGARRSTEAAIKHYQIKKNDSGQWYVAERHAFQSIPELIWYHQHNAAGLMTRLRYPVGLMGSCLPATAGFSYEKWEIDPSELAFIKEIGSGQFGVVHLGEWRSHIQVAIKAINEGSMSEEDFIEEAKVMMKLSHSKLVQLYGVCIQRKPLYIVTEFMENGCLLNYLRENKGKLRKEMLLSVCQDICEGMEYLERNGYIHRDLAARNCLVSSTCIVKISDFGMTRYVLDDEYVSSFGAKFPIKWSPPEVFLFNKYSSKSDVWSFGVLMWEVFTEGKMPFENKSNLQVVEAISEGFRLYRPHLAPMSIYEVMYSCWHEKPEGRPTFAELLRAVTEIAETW
Sequence of UniProt P54756 (whole entry, looked up): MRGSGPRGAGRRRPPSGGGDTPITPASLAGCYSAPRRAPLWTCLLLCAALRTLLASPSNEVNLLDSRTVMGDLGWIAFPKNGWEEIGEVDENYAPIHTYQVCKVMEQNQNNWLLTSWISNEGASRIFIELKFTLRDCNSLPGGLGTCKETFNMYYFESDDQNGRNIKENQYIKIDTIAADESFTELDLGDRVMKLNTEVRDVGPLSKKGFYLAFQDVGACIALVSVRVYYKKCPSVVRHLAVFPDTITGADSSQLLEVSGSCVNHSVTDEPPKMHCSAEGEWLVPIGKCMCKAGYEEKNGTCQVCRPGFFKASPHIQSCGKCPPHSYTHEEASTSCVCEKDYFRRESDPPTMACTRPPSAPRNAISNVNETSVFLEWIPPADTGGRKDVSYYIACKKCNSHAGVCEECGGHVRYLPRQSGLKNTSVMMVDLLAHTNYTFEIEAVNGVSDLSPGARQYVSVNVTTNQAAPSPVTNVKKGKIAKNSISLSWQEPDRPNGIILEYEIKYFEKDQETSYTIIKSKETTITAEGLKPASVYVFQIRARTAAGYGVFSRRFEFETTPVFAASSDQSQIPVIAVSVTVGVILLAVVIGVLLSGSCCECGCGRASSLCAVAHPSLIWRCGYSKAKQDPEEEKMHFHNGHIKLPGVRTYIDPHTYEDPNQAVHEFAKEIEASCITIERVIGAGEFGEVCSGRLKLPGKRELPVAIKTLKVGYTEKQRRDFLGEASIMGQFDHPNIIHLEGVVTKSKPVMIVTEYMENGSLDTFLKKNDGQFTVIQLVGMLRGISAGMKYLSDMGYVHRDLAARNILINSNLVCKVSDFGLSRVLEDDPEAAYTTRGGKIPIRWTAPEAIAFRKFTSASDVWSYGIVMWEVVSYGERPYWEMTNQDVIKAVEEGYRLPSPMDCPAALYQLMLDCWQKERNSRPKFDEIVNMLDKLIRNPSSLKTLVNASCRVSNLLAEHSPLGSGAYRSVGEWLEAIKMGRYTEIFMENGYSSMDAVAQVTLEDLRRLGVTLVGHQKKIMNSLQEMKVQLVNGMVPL
Sequence of UniProt P51956 (whole entry, looked up): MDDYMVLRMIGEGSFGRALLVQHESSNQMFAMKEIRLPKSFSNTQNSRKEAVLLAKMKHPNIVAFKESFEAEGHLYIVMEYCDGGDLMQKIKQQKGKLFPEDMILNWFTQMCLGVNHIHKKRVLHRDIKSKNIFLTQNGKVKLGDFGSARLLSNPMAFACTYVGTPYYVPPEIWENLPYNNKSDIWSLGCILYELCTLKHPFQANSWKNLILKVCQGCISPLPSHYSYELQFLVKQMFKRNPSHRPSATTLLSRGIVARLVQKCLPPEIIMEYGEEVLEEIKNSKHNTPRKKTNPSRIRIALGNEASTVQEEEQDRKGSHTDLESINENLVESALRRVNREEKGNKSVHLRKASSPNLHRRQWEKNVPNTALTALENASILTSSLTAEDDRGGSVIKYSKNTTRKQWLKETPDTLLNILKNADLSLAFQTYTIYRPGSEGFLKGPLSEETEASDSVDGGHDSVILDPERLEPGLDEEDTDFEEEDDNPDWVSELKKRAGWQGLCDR
Sequence of UniProt Q7KZI7 (whole entry, looked up): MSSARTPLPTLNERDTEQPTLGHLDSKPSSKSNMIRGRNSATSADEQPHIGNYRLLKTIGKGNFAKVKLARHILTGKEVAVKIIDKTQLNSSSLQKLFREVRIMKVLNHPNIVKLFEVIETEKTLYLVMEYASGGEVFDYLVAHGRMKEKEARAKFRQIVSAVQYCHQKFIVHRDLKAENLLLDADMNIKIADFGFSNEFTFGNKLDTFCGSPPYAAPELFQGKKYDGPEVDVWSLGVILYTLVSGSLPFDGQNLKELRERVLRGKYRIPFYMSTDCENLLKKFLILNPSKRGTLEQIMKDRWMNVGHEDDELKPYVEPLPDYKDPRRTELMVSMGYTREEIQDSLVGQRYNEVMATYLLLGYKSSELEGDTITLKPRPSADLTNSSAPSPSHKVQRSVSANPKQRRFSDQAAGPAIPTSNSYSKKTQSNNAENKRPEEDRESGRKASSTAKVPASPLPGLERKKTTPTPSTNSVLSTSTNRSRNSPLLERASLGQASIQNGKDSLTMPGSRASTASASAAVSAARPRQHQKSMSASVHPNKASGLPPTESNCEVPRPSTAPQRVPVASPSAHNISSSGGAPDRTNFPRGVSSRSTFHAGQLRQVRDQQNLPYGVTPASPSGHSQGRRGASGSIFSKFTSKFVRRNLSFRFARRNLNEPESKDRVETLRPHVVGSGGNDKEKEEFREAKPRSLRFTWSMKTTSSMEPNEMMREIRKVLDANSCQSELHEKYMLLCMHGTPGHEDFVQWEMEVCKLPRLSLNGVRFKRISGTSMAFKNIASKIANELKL
Sequence of UniProt P28482 (whole entry, looked up): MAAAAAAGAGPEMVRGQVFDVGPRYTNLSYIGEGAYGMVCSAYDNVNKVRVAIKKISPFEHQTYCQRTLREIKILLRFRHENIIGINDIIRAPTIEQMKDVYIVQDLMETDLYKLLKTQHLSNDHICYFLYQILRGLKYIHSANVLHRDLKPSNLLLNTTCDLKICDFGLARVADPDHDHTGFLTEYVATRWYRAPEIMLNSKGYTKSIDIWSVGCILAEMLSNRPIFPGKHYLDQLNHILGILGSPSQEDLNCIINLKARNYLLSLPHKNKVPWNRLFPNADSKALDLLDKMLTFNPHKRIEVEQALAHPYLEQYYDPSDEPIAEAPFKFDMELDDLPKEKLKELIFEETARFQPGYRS

Block 1 — read-out: enzyme activity; action: inhibitor; concentration: 0.5 µM; reference: control
Structure (SMILES): CCCNC(=O)Nc1ccc(Oc2ncnc3cc(OC)c(OC)cc23)cc1Cl
target | remaining activity [%]
Serine/threonine-protein kinase MRCK beta (CDC42BPB, Homo sapiens, UniProt Q9Y5S2) | 87.4
Tyrosine-protein kinase TXK (TXK, Homo sapiens, UniProt P42681) | 101
Mitogen-activated protein kinase 1 (MAPK1, Homo sapiens, UniProt P28482) | 101
Mitogen-activated protein kinase 11 (MAPK11, Homo sapiens, UniProt Q15759) | 88.5
Serine/threonine-protein kinase MARK2 (MARK2, Homo sapiens, UniProt Q7KZI7) | 96.2
Vascular endothelial growth factor receptor 2 (KDR, Homo sapiens, UniProt P35968) | 19.7
cGMP-dependent protein kinase 2 (PRKG2, Homo sapiens, UniProt Q13237) | 97
G protein-coupled receptor kinase 4 (GRK4, Homo sapiens, UniProt P32298) | 94.4
Serine/threonine-protein kinase PLK3 (PLK3, Homo sapiens, UniProt Q9H4B4) | 95
RAC-beta serine/threonine-protein kinase (AKT2, Homo sapiens, UniProt P31751) | 89.7
Misshapen-like kinase 1 (MINK1, Homo sapiens, UniProt Q8N4C8) | 90.1
MAP/microtubule affinity-regulating kinase 4 (MARK4, Homo sapiens, UniProt Q96L34) | 110
Serine/threonine-protein kinase DCLK2 (DCLK2, Homo sapiens, UniProt Q8N568) | 96.4
Serine/threonine-protein kinase Nek3 (NEK3, Homo sapiens, UniProt P51956) | 93.8
Discoidin domain-containing receptor 2 (DDR2, Homo sapiens, UniProt Q16832) | 67.6

Block 2 — organism: Plasmodium berghei; action: inhibitor; cells: Huh-7; strain: GFP-expressing, liver stage; concentration: 10 µM; time: 24 h; reference: untreated control
Structure (SMILES) | infection rate [%]
CC(C)(CO)C(O)C(=O)NCCCO (stereo not shown) | 98.2
S=P(N1CC1)(N1CC1)N1CC1 | 88.4
CCS(=O)(=O)CCn1c([N+](=O)[O-])cnc1C | 94.2
Cc1ccc(C(=O)c2ccc(CC(=O)O)n2C)cc1 | 119
CCOC(N)=O | 91.6
COC(=O)C1=C(C)NC(C)=C(C(=O)OCC(C)C)C1c1ccccc1[N+](=O)[O-] (stereo not shown) | 110

Block 3 — read-out: enzyme activity; action: inhibitor; concentration: 10 µM
Target: Calcium/calmodulin-dependent protein kinase type II subunit alpha (CAMK2A, Homo sapiens, UniProt Q9UQM7)
Sequence of UniProt Q9UQM7 (whole entry, looked up): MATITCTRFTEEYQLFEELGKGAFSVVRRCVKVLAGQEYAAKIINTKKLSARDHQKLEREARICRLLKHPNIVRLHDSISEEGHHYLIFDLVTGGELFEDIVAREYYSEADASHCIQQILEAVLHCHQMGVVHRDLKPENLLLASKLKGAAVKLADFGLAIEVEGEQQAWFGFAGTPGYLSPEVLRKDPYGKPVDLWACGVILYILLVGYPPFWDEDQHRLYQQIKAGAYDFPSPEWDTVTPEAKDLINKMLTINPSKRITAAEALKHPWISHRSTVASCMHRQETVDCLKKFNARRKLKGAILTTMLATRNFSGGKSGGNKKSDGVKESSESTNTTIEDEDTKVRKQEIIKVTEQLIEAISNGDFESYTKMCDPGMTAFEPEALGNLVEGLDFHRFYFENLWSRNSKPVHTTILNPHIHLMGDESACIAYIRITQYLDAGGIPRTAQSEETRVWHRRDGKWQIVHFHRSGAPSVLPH
Compound | inhibition [%]
COC(=O)C1=CC[C@@]23CC[C@@H]([C@@](C)(/C=C/C=C(\C)C(=O)O)OC2=O)[C@@]3(O)CC1 | -22
CC(C)NC[C@@H](O)COc1ccc(CC(N)=O)cc1 | 10
COc1cc(/C=C/C(=O)OC[C@H]2O[C@@H](O[C@@H]3[C@@H](O)[C@H](O)[C@@H](CO)O[C@H]3c3c(OC)cc4oc(-c5ccc(O)cc5)cc(=O)c4c3O)[C@H](O)[C@@H](O)[C@@H]2O)ccc1O | -29
Cc1nnc(C(C)C)n1[C@@H]1C[C@H]2CC[C@@H](C1)N2CC[C@H](NC(=O)C1CCC(F)(F)CC1)c1ccccc1 | -11
C[C@H](CC[C@@]1(O)O[C@H]2C[C@H]3[C@@H]4CC=C5C[C@@H](O[C@@H]6O[C@H](CO)[C@@H](O[C@@H]7O[C@@H](C)[C@H](O)[C@@H](O)[C@H]7O)[C@H](O)[C@H]6O[C@@H]6O[C@@H](C)[C@H](O)[C@@H](O)[C@H]6O)CC[C@]5(C)[C@H]4CC[C@]3(C)[C@H]2[C@@H]1C)CO[C@@H]1O[C@H](CO)[C@@H](O)[C@H](O)[C@H]1O | -13
COc1cccc(OC)c1C(=O)N[C@@H]1C(=O)N2[C@@H]1SC(C)(C)[C@@H]2C(=O)O | -1
O=c1ccn([C@@H]2O[C@H](CO)[C@@H](O)[C@@H]2O)c(=O)[nH]1 | -44

Block 4 — read-out: cell-free assay; technique: competition with immobilised ligand; concentration: 1 µM
SMILES: Cn1nc(C(F)(F)F)cc1-c1cnc(N2CCc3cc(S(=O)(=O)Nc4c(F)cc(Cl)cc4F)cc(N4CCCC4=O)c32)nc1
target | remaining binding
Dual specificity tyrosine-phosphorylation-regulated kinase 1A (DYRK1A, Homo sapiens, UniProt Q13627) | 93%
Mitogen-activated protein kinase kinase kinase kinase 5 (MAP4K5, Homo sapiens, UniProt Q9Y4K4) | 88%
Uncharacterized serine/threonine-protein kinase SBK3 (SBK3, Homo sapiens, UniProt P0C264) | 79%
Hepatocyte growth factor receptor (MET, Homo sapiens, UniProt P08581) | 100%
Serine/threonine-protein kinase N1 (PKN1, Homo sapiens, UniProt Q16512) | 100%
Ephrin type-A receptor 5 (EPHA5, Homo sapiens, UniProt P54756) | 94%
